Values quoted from earlier work that unrelated publications cite.
Compare with care: the assays were run in different laboratories.
Sequence of UniProt P23458 (whole entry, looked up): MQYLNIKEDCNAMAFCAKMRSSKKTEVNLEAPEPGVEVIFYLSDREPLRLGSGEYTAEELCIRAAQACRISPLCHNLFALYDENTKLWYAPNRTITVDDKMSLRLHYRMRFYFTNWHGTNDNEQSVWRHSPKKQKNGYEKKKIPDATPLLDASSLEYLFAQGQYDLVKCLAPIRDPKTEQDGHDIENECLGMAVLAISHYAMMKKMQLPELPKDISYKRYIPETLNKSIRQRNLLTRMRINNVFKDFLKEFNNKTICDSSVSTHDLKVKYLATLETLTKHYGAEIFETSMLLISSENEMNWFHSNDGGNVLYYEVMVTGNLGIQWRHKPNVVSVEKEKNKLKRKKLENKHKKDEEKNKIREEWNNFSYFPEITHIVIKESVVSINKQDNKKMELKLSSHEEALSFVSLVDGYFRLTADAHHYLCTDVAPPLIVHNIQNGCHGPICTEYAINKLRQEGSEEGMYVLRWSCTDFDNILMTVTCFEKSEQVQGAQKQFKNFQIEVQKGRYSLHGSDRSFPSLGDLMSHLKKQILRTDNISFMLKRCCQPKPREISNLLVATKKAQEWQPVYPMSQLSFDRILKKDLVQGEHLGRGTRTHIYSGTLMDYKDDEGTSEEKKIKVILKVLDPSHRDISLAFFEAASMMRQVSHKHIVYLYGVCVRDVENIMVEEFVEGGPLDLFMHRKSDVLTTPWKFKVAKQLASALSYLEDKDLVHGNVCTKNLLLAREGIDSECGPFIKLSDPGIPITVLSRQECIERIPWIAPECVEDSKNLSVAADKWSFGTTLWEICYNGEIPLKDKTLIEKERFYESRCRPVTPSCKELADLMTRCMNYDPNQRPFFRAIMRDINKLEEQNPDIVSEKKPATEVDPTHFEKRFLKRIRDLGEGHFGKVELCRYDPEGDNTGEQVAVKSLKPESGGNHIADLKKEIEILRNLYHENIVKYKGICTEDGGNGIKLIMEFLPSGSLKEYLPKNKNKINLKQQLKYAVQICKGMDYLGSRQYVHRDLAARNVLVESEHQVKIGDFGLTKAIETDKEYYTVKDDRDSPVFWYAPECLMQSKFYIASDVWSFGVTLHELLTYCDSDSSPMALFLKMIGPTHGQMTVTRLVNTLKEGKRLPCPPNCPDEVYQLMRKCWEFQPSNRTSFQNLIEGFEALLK

For CC(C)C[C@H](NC(=O)CNC(=O)c1cc(Cl)ccc1Cl)B(O)O, the fraction absorbed was 0.58 (population PK estimate).
With `QIIKLLPF` the IC50 was 13.3 µM (HLA class I histocompatibility antigen, A alpha chain, allele A*26:01 (Homo sapiens, UniProt P04439); peptide-MHC binding; peptide).
The remaining binding of Nc1ncc(-c2nc(N3CCOCC3)nc(N3CCOCC3)n2)c(C(F)F)n1 is reported as 0.05% (Tyrosine-protein kinase JAK1, JH2 pseudokinase domain (JAK1, Homo sapiens, UniProt P23458); KinomeScan competition binding; 10 µM).
With Cc1ncc2n1-c1ccc(Cl)cc1C(c1ccccc1F)=NC2 the blood-to-plasma ratio was 0.82 (rat).
`FLGKIWPS` gave an IC50 of 2.76 µM (HLA class I histocompatibility antigen, A alpha chain, allele A*69:01 (Homo sapiens, UniProt P04439); peptide-MHC binding; peptide).
CN1C(=O)CN=C(c2ccccc2)c2cc(Cl)ccc21 gave a blood-to-plasma ratio of 1.3 (rat).
With CCc1c2c(nc3ccc(OC(=O)N4CCC(N5CCCCC5)CC4)cc13)-c1cc3c(c(=O)n1C2)COC(=O)[C@]3(O)CC the NOAEL was 1.2 mg/kg (measured: male reproduction; rat; dosing before to early pregnancy).
CC1(C)CCC(c2ccc(Cl)cc2)=C(CN2CCN(c3ccc(C(=O)NS(=O)(=O)c4ccc(N[C@H](CCN5CCOCC5)CSc5ccccc5)c(S(=O)(=O)C(F)(F)F)c4)cc3)CC2)C1 — result for “patients with stable disease”: 23% (patients with relapsed SCLC; 325 mg daily, single agent).
